Published values pooled from the literature.
Each numbered part is a random draw from the data of one study; scales do not carry over between parts. Values joined by “and” are separate records of one study, mostly repeats; a detail may differ.
Sequence of UniProt Q02750 (whole entry, looked up): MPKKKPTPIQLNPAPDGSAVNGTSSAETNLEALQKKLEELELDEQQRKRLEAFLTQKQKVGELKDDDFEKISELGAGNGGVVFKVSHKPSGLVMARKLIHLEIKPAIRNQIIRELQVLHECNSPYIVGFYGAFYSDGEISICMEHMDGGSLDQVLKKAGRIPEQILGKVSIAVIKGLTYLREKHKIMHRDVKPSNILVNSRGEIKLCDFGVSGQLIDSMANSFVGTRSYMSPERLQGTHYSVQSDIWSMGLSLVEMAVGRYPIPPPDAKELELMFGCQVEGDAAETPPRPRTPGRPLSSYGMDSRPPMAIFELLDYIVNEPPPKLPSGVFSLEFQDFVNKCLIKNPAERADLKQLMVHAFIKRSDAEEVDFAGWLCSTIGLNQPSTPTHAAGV
Sequence of UniProt O14965 (whole entry, looked up): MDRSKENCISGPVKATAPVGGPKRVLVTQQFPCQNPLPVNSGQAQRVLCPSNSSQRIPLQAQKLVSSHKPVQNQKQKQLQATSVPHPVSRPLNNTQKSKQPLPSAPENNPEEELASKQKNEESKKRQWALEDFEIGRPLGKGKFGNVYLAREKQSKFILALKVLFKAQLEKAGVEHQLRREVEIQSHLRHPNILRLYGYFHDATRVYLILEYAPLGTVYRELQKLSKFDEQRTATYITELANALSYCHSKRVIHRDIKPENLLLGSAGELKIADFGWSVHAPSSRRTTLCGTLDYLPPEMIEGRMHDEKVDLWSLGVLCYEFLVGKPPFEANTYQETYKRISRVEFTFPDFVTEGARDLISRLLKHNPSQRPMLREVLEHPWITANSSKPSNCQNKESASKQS
Sequence of UniProt P50750 (whole entry, looked up): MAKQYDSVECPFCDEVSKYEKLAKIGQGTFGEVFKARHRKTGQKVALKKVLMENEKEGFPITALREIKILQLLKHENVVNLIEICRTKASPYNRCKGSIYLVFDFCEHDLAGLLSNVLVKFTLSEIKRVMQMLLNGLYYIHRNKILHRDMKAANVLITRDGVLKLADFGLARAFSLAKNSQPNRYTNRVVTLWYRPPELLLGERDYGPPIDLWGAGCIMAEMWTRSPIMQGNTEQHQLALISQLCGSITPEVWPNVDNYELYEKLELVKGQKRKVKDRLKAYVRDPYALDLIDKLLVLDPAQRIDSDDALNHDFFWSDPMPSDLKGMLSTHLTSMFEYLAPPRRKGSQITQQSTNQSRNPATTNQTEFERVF
Sequence of UniProt Q6ZN16 (whole entry, looked up): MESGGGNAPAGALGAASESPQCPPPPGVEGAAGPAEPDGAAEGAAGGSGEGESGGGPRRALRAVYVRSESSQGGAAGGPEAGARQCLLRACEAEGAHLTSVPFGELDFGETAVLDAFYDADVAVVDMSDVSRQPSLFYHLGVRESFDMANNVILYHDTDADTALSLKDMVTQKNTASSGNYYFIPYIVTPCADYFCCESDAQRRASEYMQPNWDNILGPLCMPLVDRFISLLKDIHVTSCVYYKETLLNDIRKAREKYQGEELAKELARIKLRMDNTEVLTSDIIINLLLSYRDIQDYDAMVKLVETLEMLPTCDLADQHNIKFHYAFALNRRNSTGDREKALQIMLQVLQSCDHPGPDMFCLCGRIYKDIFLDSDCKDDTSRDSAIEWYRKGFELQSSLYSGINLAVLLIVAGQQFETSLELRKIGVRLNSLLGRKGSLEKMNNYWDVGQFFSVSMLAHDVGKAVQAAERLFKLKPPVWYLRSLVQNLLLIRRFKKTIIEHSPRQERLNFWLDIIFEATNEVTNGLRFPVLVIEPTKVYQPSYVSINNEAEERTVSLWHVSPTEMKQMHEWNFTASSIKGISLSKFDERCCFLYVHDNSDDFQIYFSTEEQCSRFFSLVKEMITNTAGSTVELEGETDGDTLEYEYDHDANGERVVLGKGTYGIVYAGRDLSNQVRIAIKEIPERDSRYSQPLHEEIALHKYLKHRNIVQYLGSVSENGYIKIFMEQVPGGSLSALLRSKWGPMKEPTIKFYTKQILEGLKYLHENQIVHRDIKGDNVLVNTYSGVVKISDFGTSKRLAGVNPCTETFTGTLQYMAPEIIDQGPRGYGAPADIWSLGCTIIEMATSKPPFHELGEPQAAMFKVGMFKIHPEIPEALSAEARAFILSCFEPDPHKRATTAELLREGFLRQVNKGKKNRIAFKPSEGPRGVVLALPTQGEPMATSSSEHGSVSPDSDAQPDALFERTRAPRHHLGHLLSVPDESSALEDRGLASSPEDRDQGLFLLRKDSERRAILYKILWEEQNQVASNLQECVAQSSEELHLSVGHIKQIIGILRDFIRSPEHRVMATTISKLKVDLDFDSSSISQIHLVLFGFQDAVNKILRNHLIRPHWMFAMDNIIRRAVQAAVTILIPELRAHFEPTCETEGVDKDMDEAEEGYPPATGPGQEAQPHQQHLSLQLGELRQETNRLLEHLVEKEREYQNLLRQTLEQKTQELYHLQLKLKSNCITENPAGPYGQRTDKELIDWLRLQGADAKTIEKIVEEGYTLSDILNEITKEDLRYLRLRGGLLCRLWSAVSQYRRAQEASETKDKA
Sequence of UniProt P23443 (whole entry, looked up): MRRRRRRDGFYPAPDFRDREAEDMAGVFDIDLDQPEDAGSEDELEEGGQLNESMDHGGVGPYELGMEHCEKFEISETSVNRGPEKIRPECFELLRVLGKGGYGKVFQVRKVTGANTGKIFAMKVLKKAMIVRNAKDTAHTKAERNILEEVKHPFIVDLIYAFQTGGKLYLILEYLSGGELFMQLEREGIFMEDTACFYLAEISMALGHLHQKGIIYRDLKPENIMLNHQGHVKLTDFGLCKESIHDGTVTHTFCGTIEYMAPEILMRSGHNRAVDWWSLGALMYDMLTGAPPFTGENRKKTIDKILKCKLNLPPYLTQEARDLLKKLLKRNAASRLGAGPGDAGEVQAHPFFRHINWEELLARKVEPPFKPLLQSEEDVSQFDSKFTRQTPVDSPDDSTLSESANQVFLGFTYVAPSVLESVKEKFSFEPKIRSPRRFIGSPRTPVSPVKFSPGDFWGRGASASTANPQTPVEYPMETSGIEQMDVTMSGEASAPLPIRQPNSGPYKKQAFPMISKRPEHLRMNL

Set 1
Target: Alpha-1A adrenergic receptor (ADRA1A, Homo sapiens, UniProt P35348)
Observed: binding
Method: radioligand binding
Concentration: 10 µM
Target sequence (P35348 1-466): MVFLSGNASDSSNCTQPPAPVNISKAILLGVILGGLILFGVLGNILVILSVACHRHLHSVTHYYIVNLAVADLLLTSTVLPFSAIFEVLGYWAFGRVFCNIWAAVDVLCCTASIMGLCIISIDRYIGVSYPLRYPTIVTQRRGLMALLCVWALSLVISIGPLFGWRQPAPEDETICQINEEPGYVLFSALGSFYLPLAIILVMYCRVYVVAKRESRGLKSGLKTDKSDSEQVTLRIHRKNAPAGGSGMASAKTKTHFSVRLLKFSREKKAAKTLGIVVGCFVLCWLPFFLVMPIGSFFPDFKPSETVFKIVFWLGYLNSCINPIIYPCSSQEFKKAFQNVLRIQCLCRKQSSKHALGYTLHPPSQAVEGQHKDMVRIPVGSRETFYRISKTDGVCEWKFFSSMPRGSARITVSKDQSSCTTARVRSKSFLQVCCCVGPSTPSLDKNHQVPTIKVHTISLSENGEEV
Structure (SMILES) | inhibition
CN([C@@H]1CCc2c(CC(=O)O)c3cc(S(C)(=O)=O)ccc3n2C1)S(=O)(=O)c1ccc(F)cc1 | -12%
CCOC(=O)c1cc2cc(-c3cc(C(=O)NCc4ccc(C(=O)O)cc4)nn3C)ccc2[nH]1 | -6.15%
C[C@@H]1CN(c2cc(-c3nn(C)c4ccc(OC5(C)CC5)cc34)ncn2)C[C@H](C)O1 | -3.6%
CC(C)CC(=O)N1CCc2nc(-c3ccc(Br)cc3)nc(N(C)Cc3ccccc3)c2C1 | -1.11%
Cc1c(N2CCCC2)nc2ccc(Br)cc2c1C(=O)NC[C@H](CCC(=O)O)c1ccccc1Cl | 1.72%
O=C(Nc1cnc(Oc2ccc(F)cc2)nc1)N1CCc2ncccc2[C@@H]1c1ccc(F)cc1 | -3.5%
Cc1nccc(COC(=O)N2C[C@@H]3[C@@H](CNC(=O)c4ccc5[nH]nnc5c4)[C@@H]3C2)n1 | -3.15%
O=C(Nc1cccnn1)N1CCC(=Cc2cccc(Oc3ccc(C(F)(F)F)cn3)c2)CC1 | 10.3%
O=C(O)c1cc(-c2ccc(C3CCNCC3)cc2)c2ccc(-c3ccc(C(F)(F)F)cc3)cc2c1 | 46.7%
O=C(NC[C@@H]1[C@H]2CN(C(=O)OCc3cc(C(F)(F)F)cc(C(F)(F)F)c3)C[C@@H]12)c1ccc2[nH]nnc2c1 | 4.06%
CN1CCN(C(=O)C(C)(C)c2ccc(C(=O)Nc3cn4cc(-c5ccncc5)ccc4n3)cc2)CC1 | -5.18%
CNC(=O)c1ccc(Nc2ncc(C(F)(F)F)c(NCc3nccnc3N(C)S(C)(=O)=O)n2)cc1 | -4.42%
CC(C)(O)c1cncc(-c2nc3ccc(F)cc3n2C2CC2)c1 | -3.03%
COc1nc2ccc([C@@](O)(c3ccccc3)C3CCN(C(C)=O)CC3)cc2c(Cl)c1Cc1ccc(-n2cccn2)cc1 | 10.3%
O=C1c2ccc(Nc3ccc(F)cc3F)cc2CCc2ccc(OC[C@H](O)CO)cc21 | 21.8%
CC(=O)Nc1c(F)cc(C(=O)N[C@H]2CC[C@H](O)CC2)cc1O[C@@H](C)c1ccccc1 | -12.8%
COc1cc(-c2cn(C3CCc4ccccc4N(CC(F)(F)F)C3=O)nn2)ccc1-n1ccc(C)n1 (centres unmarked) | -27.3%
CN1C(=O)[C@@H](N2CCc3cn(Cc4ccccc4)nc3C2=O)COc2ccccc21 | -0.5%
CCOCCn1cc(C(=O)Nc2ccc(-n3nc(-c4cccnc4)cc3C(F)(F)F)cn2)ccc1=O | 29.3%
Cc1c[nH]c2nccc(Oc3c(F)cc(Nc4cc(Cl)nc(N)n4)cc3F)c12 | -7.18%
Cc1c(NC(=O)c2cc(C(N)=O)nc3cc(F)ccc23)c(C(F)(F)F)nn1Cc1ccc(C(C)(C)C)cc1 | 5.25%
CC(=O)Nc1nc(CN2CCC[C@H](Cc3cc(C)nc(C)c3)C2)cs1 | -1.89%
CN(C)C(=O)Cn1cc(-c2nc([C@@](C)(c3ccc(-c4cnc(N)nc4)cc3)C3CC3)no2)cn1 | 4.68%
O=C(Nc1ccc(-n2nc(-c3cccnc3)cc2C(F)(F)F)cn1)c1ccc(-c2ccccc2)c(F)c1 | 1.9%
O=C1CCc2cc(Nc3cc(OC4CCOCC4)c([N+](=O)[O-])cc3Cl)ccc2N1 | -8.76%

Set 2
Compound: Cc1ccc(NC(=O)c2ccnc(C(F)(F)F)c2)cc1-c1cc(OCCO)nc(N2CCOCC2)c1
Concentration: 1 µM
target | test | conditions | how to read | remaining binding
Ribosomal protein S6 kinase beta-1 (RPS6KB1, Homo sapiens, UniProt P23443) | competitive binding, scanMAX | S6K1, 1000 nM |  | 100%
Dual specificity mitogen-activated protein kinase kinase 1 (MAP2K1, Homo sapiens, UniProt Q02750) | competitive binding, scanMAX | MEK1, 1000 nM |  | 86%
Aurora kinase A (AURKA, Homo sapiens, UniProt O14965) | competitive binding panel |  | reference: vehicle | 98%
Mitogen-activated protein kinase kinase kinase 15 (MAP3K15, Homo sapiens, UniProt Q6ZN16) | competitive binding panel |  | reference: vehicle | 66%
Cyclin-dependent kinase 9 (CDK9, Homo sapiens, UniProt P50750) | competitive binding panel |  | reference: vehicle | 100%

Set 3
Cell line: HaCaT
Concentration: 100 µM
Time: 18 h
SMILES | viability [%]
CC(=O)OCC(CCn1cnc2cnc(N)nc21)COC(C)=O | 92.2
CC(C)(C)C(=O)OCOP(=O)(COCCn1cnc2c(N)ncnc21)OCOC(=O)C(C)(C)C | 91.8
N[C@@H](Cc1c[nH]c2ccccc12)C(=O)O | 99.4
COC(=O)C1=CO[C@@H](O[C@@H]2O[C@H](CO)[C@@H](O)[C@H](O)[C@H]2O)[C@@H]2[C@@H](C)[C@@H](O)C[C@H]12 | 112

Set 4
Cell line: mouse MPNST tumor cells
Method: high-content nuclear imaging
Refers to: cell number
Concentration: 10 µM
Time: 12 h
Setting: mean of 2 replicates
Reference: plate mean
Direction: higher = more cells
Structure (SMILES) | nuclei count
CN(C)[C@@H]1C(=O)C(C(N)=O)=C(O)[C@@]2(O)C(=O)C3=C(O)c4c(O)ccc(Cl)c4[C@@H](O)[C@H]3C[C@@H]12 | -0.509 z-score
CC(=O)OC[C@H]1O[C@@H]([S-])[C@H](OC(C)=O)[C@@H](OC(C)=O)[C@@H]1OC(C)=O.CCP(CC)CC.[Au+] | -5.42 z-score
CNC1(C)C2CCC(C2)C1(C)C (centres unmarked) | 0.538 z-score and 0.473 z-score
Cc1onc(-c2c(Cl)cccc2Cl)c1C(=O)N[C@@H]1C(=O)N2[C@@H]1SC(C)(C)[C@@H]2C(=O)O | -0.0561 z-score

Set 5
Host: human
Sample: microsomes or S9
Concentration: 2 µM
Time: 0.5 h
SMILES | remaining compound
CCOc1ccc(C(=O)N2CCc3cc(OC)c(OC)cc3C2CC2CC3c4cc(OC)c(OC)cc4CCN3CC2CC)cc1 (centres unmarked) | 5.3%
CC(C)(C)n1cc(Nc2cccc(F)c2C#N)cn1 | 35.9%
CC(C)c1noc(CCCn2ccc(-c3ccc(Br)cc3)n2)n1 | 56.1%
COc1ccc(CNc2ccc(C(=O)N3CCN(Cc4ccc(OC)c(OC)c4OC)CC3)cc2S(=O)(=O)Nc2cccc(OC)c2)cc1 | 22.7%
O=C1Nc2c(c3cc(O)ccc3n2Cc2ccccc2)CNC1Cc1ccccc1 (centres unmarked) | 0%
O=C(Cc1cccs1)NC1(C(=O)NC2CCCCC2)CCCCC1 | 2.55%

Set 6
Target: Eukaryotic initiation factor 4A-III (Homo sapiens, UniProt P38919)
Sequence of UniProt P38919 (whole entry, looked up): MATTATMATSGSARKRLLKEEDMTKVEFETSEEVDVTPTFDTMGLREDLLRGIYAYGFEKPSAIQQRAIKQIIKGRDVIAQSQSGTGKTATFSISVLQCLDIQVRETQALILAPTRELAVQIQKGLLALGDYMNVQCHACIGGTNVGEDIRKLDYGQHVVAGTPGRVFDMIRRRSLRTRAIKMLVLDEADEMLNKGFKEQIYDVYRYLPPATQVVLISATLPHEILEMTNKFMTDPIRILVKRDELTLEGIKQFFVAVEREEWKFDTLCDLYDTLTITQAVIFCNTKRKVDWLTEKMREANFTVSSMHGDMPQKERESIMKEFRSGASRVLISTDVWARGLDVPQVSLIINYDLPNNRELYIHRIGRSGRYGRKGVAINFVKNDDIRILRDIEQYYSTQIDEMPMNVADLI
Observed: RNA clamping
Method: fluorescence polarization
Concentration: concentration not given
Setting: mean of two replicates
Together with: FAM-labelled poly r(AG)8 RNA
SMILES | fluorescence polarization change [mP]
C#CCN[C@@]12C(=O)[C@H](C(=O)OC)[C@@H](c3ccccc3)[C@]1(c1ccc(OC)cc1)Oc1cc(OC)cc(OC)c12 | 1.9
COC(=O)[C@H]1[C@@H](O)[C@@]2(O)c3c(OC)cc(OCc4ccccc4)cc3O[C@@]2(c2ccc(OC)cc2)[C@@H]1c1ccccc1 | 6.6
COc1ccc([C@@]23Oc4cc(OC)cc(OC)c4[C@@](O)(C2=O)[C@H](c2ccccc2)[C@H]3c2ccccc2)cc1 | 6.3
COC(=O)[C@@H]1[C@@H](c2ccccc2)[C@]2(c3ccc(OC)cc3)Oc3cc(OC)cc(OC)c3[C@@]23NC(CCl)=N[C@@]13O | 13.5
COc1ccc([C@@]23Oc4cc(OC)cc(OC)c4[C@]2(O)C2=C(C(=O)N4CCC[C@H]4O2)[C@H]3c2ccccc2)cc1 | 35.2

Set 7
Target: Calcium/calmodulin-dependent protein kinase type II subunit alpha (CAMK2A, Homo sapiens, UniProt Q9UQM7)
Sequence of UniProt Q9UQM7 (whole entry, looked up): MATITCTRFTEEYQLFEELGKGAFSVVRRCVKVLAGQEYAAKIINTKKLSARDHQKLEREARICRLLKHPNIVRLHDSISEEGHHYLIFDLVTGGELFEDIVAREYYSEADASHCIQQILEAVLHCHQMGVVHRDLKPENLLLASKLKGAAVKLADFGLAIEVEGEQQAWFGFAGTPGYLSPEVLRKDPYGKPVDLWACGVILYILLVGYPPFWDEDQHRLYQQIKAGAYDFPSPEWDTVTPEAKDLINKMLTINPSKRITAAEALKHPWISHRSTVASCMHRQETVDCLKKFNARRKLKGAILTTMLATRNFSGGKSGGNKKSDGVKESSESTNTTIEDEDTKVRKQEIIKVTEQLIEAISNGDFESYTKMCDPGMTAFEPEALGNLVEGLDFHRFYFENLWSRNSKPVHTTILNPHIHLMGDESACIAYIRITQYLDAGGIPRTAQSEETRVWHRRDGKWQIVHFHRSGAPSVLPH
Observed: enzyme activity
Action: inhibitor
Concentration: 10 µM
Structure (SMILES) | inhibition
CC(C)OC(=O)[C@H](C)N[P@](=O)(OC[C@H]1O[C@@H](n2ccc(=O)[nH]c2=O)[C@](C)(F)[C@@H]1O)Oc1ccccc1 | 2%
C[C@H](Oc1cc(-c2cnn(C3CCNCC3)c2)cnc1N)c1c(Cl)ccc(F)c1Cl | -8%
CC(C)=CCC[C@](C)(O[C@@H]1O[C@H](CO)[C@@H](O)[C@H](O)[C@H]1O)[C@H]1CC[C@]2(C)[C@@H]1[C@H](O)C[C@@H]1[C@@]3(C)C[C@@H](O)[C@H](O[C@@H]4O[C@H](CO)[C@@H](O)[C@H](O)[C@H]4O[C@@H]4O[C@H](CO)[C@@H](O)[C@H](O)[C@H]4O)C(C)(C)[C@@H]3CC[C@]12C | 8%
CC(=O)O[C@H](CC=C(C)C)C1=CC(=O)c2c(O)ccc(O)c2C1=O | -5%
